Measured values pooled from the literature.
Lines come from different studies, so protocols differ. ± gives the spread as reported.
Organism: Trypanosoma cruzi

| SMILES | observed | method | cells | strain | time | setting | EC50 [µM] |
| --- | --- | --- | --- | --- | --- | --- | --- |
| O=C1C=CS(=O)(=O)c2ccc(Cl)cc21 | intracellular amastigote growth | – | U-937 | Tulahuen, β-galactosidase transfected | 72 h | – | 1070 |
| N#CSCCOc1ccc(Oc2ccncc2)cc1 | parasite growth | – | – | – | – | intracellular, amastigote | > 10 |
| O=C1C=CS(=O)(=O)c2ccc(-c3cc(C(F)(F)F)cc(C(F)(F)F)c3)cc21 | intracellular amastigote growth | – | U-937 | Tulahuen, β-galactosidase transfected | 72 h | – | 229 |
| N#CSCCOc1ccc(Oc2ccccc2F)cc1 | parasite growth | – | – | – | – | intracellular, amastigote | > 10 |
| N/C(S)=N/N=C/c1ccc(-c2ccc(Cl)cc2)o1 | parasite growth | image-based | C2C12 | CA-I/72 | 72 h | – | < 1 |
| CCOC(=O)c1csc(NN=Cc2ccco2)n1 | parasite growth | – | – | – | 24 h | trypomastigote | 2.75 |
| O=C(Cn1ccnc1[N+](=O)[O-])NCc1ccccc1 | parasite growth | – | – | – | – | intracellular, amastigote | 1.52 |
| COC(=O)c1sccc1S(=O)(=O)N1CCN(c2ccc(C(=O)N[C@H](Cc3c[nH]c4ccccc34)C(=O)Nc3ccncc3)c(F)c2)CC1 | – | – | mouse C2C12 myoblasts | CA-I/72 | 72 h | – | 3.1 ± 1.2 |
| CCOC(=O)CC1SC(=NN=Cc2ccc(O)c(OC)c2)NC1=O (stereo not drawn) | parasite growth | – | – | – | 24 h | trypomastigote | 35.5 |
| O=C(N[C@H](Cc1c[nH]c2ccccc12)C(=O)Nc1ccncc1)c1ccc(N2CCN(S(=O)(=O)c3cccs3)CC2)cc1F | – | – | mouse C2C12 myoblasts | CA-I/72 | 72 h | – | 0.00082 ± 1e-05 |
| CC[C@@H]([C@H](C)O)n1ncn(-c2ccc(N3CCN(c4ccc(OC[C@@H]5CO[C@@](Cn6cncn6)(c6ccc(F)cc6F)C5)cc4)CC3)cc2)c1=O | parasite growth | – | NIH3T3 | – | – | intracellular, amastigote | 0.0003 |
| c1ccc(-c2ccc(Cn3cncc3CNc3ccc(N4CCCCC4)c(-c4ccccc4)c3)cc2)cc1 | parasite growth | – | mouse Fibroblast | – | – | intracellular, amastigote | 0.035 |
| O=C1C=CS(=O)(=O)c2ccccc21 | intracellular amastigote growth | – | U-937 | Tulahuen, β-galactosidase transfected | 72 h | – | 103 |
| CCOC(=O)CC1SC(=NN=Cc2ccccc2O)NC1=O (stereo not drawn) | parasite growth | – | – | – | 24 h | trypomastigote | 19.8 |
| O=C(N[C@H](Cc1c[nH]c2ccccc12)C(=O)Nc1ccncc1)c1ccc(N2CCN(S(=O)(=O)c3ccsc3C(=O)O)CC2)cc1F | – | – | mouse C2C12 myoblasts | CA-I/72 | 72 h | – | > 10 |
| CCOC(=O)c1csc(NN=C(C)c2ccccc2)n1 | parasite growth | – | – | – | 24 h | trypomastigote | 2.83 |
| O=C1C=CS(=O)(=O)c2cc(-c3cc(C(F)(F)F)cc(C(F)(F)F)c3)ccc21 | intracellular amastigote growth | – | U-937 | Tulahuen, β-galactosidase transfected | 72 h | – | 152 |
| COC(=O)c1ccc(NCc2cncn2Cc2ccc(F)cc2F)cc1-c1ccccc1 | amastigote growth | – | 3T3 fibroblasts | Tulahuen | – | – | 0.025 |
| O=C(O)c1ccc(S(=O)(=O)N2CCN(c3ccc(C(=O)N[C@H](Cc4c[nH]c5ccccc45)C(=O)Nc4ccncc4)c(F)c3)CC2)cc1 | – | – | mouse C2C12 myoblasts | CA-I/72 | 72 h | – | > 10 |
| CC1=CC(=O)c2ccccc2S1(=O)=O | intracellular amastigote growth | – | U-937 | Tulahuen, β-galactosidase transfected | 72 h | – | 402 |
| Cc1ccc2nc(-c3ccc(Cl)cc3)cn2c1 | – | – | 3T3 host cells | Tulahuen beta-galactosidase | 6 days | – | > 5 |
| O=C1C(Cc2cccs2)=CS(=O)(=O)c2ccccc21 | intracellular amastigote growth | – | U-937 | Tulahuen, β-galactosidase transfected | 72 h | – | 116 |
| CCOC(=O)c1csc(NN=Cc2cccc(Cl)c2)n1 | parasite growth | – | – | – | 24 h | trypomastigote | 4.44 |
| COc1ccc(NCc2cncn2Cc2ccc(-c3ccccc3)cc2)cc1-c1ccccc1 | parasite growth | – | mouse Fibroblast | – | – | intracellular, amastigote | 0.009 |
| CCOC(=O)c1csc(NN=Cc2ccccc2Cl)n1 | parasite growth | – | – | – | 24 h | trypomastigote | 12.5 |
| c1ccc(-c2ccc(Cn3cncc3CNc3ccc(-c4cncs4)c(-c4ccccc4)c3)cc2)cc1 | parasite growth | – | mouse Fibroblast | – | – | intracellular, amastigote | 0.028 |
| CCOC(=O)c1csc(NN=Cc2cccc(Br)c2)n1 | parasite growth | – | – | – | 24 h | trypomastigote | 46.7 |
| O=C1C=CS(=O)(=O)c2ccc(Br)cc21 | intracellular amastigote growth | – | U-937 | Tulahuen, β-galactosidase transfected | 72 h | – | 73.2 |
| CN(C)C(=O)c1ccc(NCc2cncn2Cc2ccc(-c3ccccc3)cc2)cc1-c1ccccc1 | parasite growth | – | mouse Fibroblast | – | – | intracellular, amastigote | 0.014 |
| CCOC(=O)CC1SC(=NN=Cc2ccc(C)cc2)NC1=O (stereo not drawn) | parasite growth | – | – | – | 24 h | trypomastigote | 29.3 |

Repeated from above:
| SMILES | observed | method | cells | strain | time | setting | EC50 [µM] |
| --- | --- | --- | --- | --- | --- | --- | --- |
| CCOC(=O)c1csc(NN=Cc2cccc(Cl)c2)n1 | parasite growth | – | – | – | 24 h | trypomastigote | 4.44 |
| COc1ccc(NCc2cncn2Cc2ccc(-c3ccccc3)cc2)cc1-c1ccccc1 | parasite growth | – | mouse Fibroblast | – | – | intracellular, amastigote | 0.009 |
| CCOC(=O)c1csc(NN=Cc2ccccc2Cl)n1 | parasite growth | – | – | – | 24 h | trypomastigote | 12.5 |
| c1ccc(-c2ccc(Cn3cncc3CNc3ccc(-c4cncs4)c(-c4ccccc4)c3)cc2)cc1 | parasite growth | – | mouse Fibroblast | – | – | intracellular, amastigote | 0.028 |
| CCOC(=O)c1csc(NN=Cc2cccc(Br)c2)n1 | parasite growth | – | – | – | 24 h | trypomastigote | 46.7 |
